Measurements pooled from the literature.
Compare with care: the assays were run in different laboratories.
Target: Tyrosine-protein kinase JAK2 (JAK2, Homo sapiens, UniProt O60674)
UniProt O60674, sequence (whole entry, looked up): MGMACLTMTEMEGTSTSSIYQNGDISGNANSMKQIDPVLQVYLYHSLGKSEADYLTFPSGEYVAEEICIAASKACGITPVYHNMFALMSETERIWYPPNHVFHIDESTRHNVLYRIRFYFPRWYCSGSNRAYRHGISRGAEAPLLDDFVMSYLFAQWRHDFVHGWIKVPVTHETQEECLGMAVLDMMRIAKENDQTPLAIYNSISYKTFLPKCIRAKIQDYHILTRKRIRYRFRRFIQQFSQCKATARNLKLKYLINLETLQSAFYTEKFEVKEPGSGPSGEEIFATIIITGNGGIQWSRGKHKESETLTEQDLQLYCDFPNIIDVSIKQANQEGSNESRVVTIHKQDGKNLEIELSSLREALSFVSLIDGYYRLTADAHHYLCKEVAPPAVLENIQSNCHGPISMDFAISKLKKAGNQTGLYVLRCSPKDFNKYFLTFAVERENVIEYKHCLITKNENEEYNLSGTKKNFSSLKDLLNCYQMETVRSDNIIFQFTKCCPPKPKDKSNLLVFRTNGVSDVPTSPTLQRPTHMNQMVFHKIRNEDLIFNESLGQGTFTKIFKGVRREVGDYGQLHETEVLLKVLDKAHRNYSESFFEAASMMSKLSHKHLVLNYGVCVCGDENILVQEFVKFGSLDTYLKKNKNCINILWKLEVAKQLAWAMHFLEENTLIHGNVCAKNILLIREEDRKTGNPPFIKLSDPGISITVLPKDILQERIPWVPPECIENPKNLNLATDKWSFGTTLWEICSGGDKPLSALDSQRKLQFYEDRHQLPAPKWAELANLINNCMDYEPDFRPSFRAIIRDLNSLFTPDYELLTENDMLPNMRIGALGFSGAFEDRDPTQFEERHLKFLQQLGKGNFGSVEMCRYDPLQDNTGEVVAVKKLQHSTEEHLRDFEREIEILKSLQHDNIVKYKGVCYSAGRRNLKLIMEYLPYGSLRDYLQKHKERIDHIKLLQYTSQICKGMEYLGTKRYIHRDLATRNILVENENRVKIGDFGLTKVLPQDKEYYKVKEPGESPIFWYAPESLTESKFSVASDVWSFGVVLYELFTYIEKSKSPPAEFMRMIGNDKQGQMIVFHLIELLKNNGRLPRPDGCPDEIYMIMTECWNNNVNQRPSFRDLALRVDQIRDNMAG

Compound = COc1ccc2c(c1)C(=C1Nc3ccccc3C1=NOCC(O)CO)C(=O)N2 (stereo not shown); test = enzyme activity, inhibitor, radiometric; IC50 = 74.1 nM
Compound = CCn1c(C)c(C(=O)c2ccccc2)c(=O)n1-c1cccc(S(N)(=O)=O)c1; test = enzyme activity, inhibitor, ADP detection; IC50 = 12.6 nM
Compound = C=CC(=O)Nc1cccc(Cn2ncc3cnc(Nc4cnn(CCOC)c4)nc32)c1; test = enzyme activity, inhibitor, TR-FRET; IC50 = > 10000 nM
Compound = N#Cc1ccc2oc(-c3cc(-c4cnn(C5CCNCC5)c4)cnc3N)nc2c1; test = enzyme activity, inhibitor, TR-FRET; IC50 = 1020 nM
Compound = Cc1ccc2oc(-c3c4c(N)n[nH]c(=O)c4nn3-c3ccc(NC(=O)/C=C/CN(C)C)cc3)c(C)c2c1; test = enzyme activity, inhibitor, FRET; IC50 = > 1000 nM
Compound = Nc1ncc(-c2cnn(C3CCNCC3)c2)cc1-c1nc2ccc(Oc3cnccn3)cc2o1; test = enzyme activity, inhibitor, TR-FRET; IC50 = 760 nM
Compound = Cc1cnc2nc1Nc1cccc(c1)COC/C=C/COCc1cc(ccc1OCCN1CCOCC1)N2; test = enzyme activity, inhibitor, FRET; IC50 = 1.17 nM
Compound = C=CC(=O)N1CCc2ccc(-n3c(=O)ccc4cnc5ccc(-c6cnn(C)c6)cc5c43)cc21; test = enzyme activity, inhibitor; IC50 = > 10000 nM
Compound = Nc1ncc(-c2cnn(C3CCNCC3)c2)cc1-c1nc2ccc(N3CCCCC3)cc2o1; test = enzyme activity, inhibitor, TR-FRET; IC50 = 540 nM
Compound = N#C/C(=C\c1cccc(-c2cccc3[nH]ncc23)c1)C(N)=O; test = kinase activity, inhibitor; conditions = up to highest tested, together with: ATP at Km; IC50 = > 10000 nM
Compound = CCn1c(C)c(Sc2ccc(C)cc2)c(=O)n1-c1ccccc1Cl; test = enzyme activity, inhibitor, ADP detection; IC50 = 23.8 nM
Compound = CN(C)c1ccc2nc(-c3cc(-c4cnn(C5CCNCC5)c4)cnc3N)oc2c1; test = enzyme activity, inhibitor, TR-FRET; IC50 = 400 nM
Compound = Cc1nn(C)c(O)c1-c1nc2cc(Cl)c(Cl)cc2[nH]c1=O; test = enzyme activity, inhibitor, ADP detection; IC50 = 13 nM
Compound = Cc1cnc(Nc2cc(C)c(C)c(C)c2)nc1Nc1ccc2oc(=O)[nH]c2c1; test = enzyme activity, inhibitor; IC50 = 413 nM
Compound = Nc1ncc(-c2cnn(C3CCNCC3)c2)cc1-c1nc2ccc(O)cc2o1; test = kinase activity, HTRF; conditions = together with: ATP 10 µM; IC50 = 120 nM
Compound = Cn1c(-c2ccccc2)c(-c2nc3ccccc3[nH]c2=O)c2ccccc21; test = enzyme activity, inhibitor, ADP detection; IC50 = 20.2 nM
